Published values from different studies.
Every numbered part comes from another study and shows a few of its results, in no order.

Sample 1
Target: Fragile X messenger ribonucleoprotein 1, C-terminal low-complexity region (Fmr1, Mus musculus, UniProt P35922)
Technique: RNA Bind-n-Seq
Form: RNA
Medium: in vitro
Concentration: 200 nM
Notes: whole 134-nt RNA, ends assumed
With: 150 mM KCl
Baseline: input library
Direction: higher = stronger binding
Constant ends, left off below: GGGAGUUCUACAGUCCGACGAUC … UGGAAUUCUCGGGUGUCAAGG
Strand | log2 enrichment
UCCUGUGCUACACAUCGUAUGUACCGAAUCGGGAAAAAGGGGAAAAAGGGAAAAAGGGGAAAGUAUUAUGUUACGCCGUUCGGAUCUGCA | -0.0271
ACCAUGCAGGUGGGCAUCUUUGGGAAGUGGGGCAAGAAAGGGAUAGGGAGGGGGGUAACACUUUGGGAACAGGUGGUCCCAGGUCGUUUC | 0.686
CAAGUCCUGUGCUACACAUCGUAUGUACCGAAUCGGGUUUUUGGGAGGGAAAGGGAAAGUAUUAUGUUACGCCGUUCGGAUCUGCACUUC | 0.821
GUGCUACACAUCGUAUGUACCGAAUCGGGGUUUUUUUGGGGAAAAAAAGGGGAAAAAAAGGGGAAAGUAUUAUGUUACGCCGUUCGGAUC | 0.0858
ACCAUGCAGGUGGGCAUCAAAGGGAAGUGGGGCAAGGGGGGGAUAGGGAGGGGGGUAACACUUUGGGAACAGGUGGUCCCAGGUCGUUUC | 0.639
AGUCCUGUGCUACACAUCGUAUGUACCGAAUCGGGUUUGGGUUUUUGGGAAAAAGGGAAAGUAUUAUGUUACGCCGUUCGGAUCUGCACU | 0.302

Sample 2
Target: Sal-like protein 4, full length isoform B (SALL4, Homo sapiens, UniProt Q9UJQ4-2, residues 1-616)
Technique: universal PBM
Form: double-stranded DNA, one strand shown
Medium: in vitro
Concentration: not given
Notes: 8-mer, flanks averaged, mean of replicates
Direction: higher = stronger binding
Strand | E-score
AACCTTTG | 0.0738
GATAGGGC | -0.136
AATCGCTG | -0.128
CCGTATCC | -0.145
CCGAGTAC | -0.238
GGTTCTCA | -0.0449
CTCCATGA | -0.00144
AGCCTTCG | -0.18

Sample 3
Target: Protein C-ets-1 (ETS1, Homo sapiens, UniProt P14921, residues 1-441, Y397A, full length assumed)
Sequence of UniProt P14921 (whole entry, unmodified, looked up): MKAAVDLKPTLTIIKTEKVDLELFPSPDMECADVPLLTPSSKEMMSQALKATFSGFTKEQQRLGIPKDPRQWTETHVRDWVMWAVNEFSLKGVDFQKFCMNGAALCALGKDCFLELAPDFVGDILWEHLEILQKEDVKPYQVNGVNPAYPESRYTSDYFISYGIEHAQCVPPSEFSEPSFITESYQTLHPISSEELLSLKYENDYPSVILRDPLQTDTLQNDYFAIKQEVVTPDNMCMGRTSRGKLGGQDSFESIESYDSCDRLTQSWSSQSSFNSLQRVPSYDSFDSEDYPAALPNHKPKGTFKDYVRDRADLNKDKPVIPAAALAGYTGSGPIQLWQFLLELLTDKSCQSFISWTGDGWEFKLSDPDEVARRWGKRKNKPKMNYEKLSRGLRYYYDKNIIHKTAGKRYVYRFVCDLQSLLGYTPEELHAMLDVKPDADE
Technique: protein-binding microarray
Form: double-stranded DNA, one strand shown
Medium: in vitro
Concentration: not given
Notes: k-mer, scored over probes, only values ≥0.25
Direction: higher = stronger binding
Strand | E-score
CCCGCCCG | 0.254
TATCCGGA | 0.295
CAAATAAC | 0.283
ACTGGCAC | 0.281
GCAAACAA | 0.269
CGACAAAG | 0.273
ATATGTAC | 0.28

Further values, each from its own experiment
Molecule | target | test | test system | setting | scale | measurement | result
PhoQ, residues 284 288 289 292 302 303 TNSAEL | PhoP, residues 12 14 15 18 19 QYCSL (Escherichia coli, UniProt P23836) | Sort-seq, measured: YFP reporter | E. coli | PhoQ-PhoP variant library, with: 10 µM Mg2+ | baseline: high Mg2+ state, higher = stronger signaling | fold induction | 6.81

For quick reference, copied from above (sample 2):
Strand | E-score
AATCGCTG | -0.128
CCGTATCC | -0.145
CCGAGTAC | -0.238
